Results gathered from unrelated publications.
Every numbered part comes from another study and shows a few of its results, in no order. Substitutions count along the parent as printed.

Study 1
Target: RNA binding protein fox-1 homolog 2, RRM domain, GST-SBP tag (RBFOX2, Homo sapiens, UniProt O43251-10, residues 100-194)
Method: RNA Bind-n-Seq
Form: RNA
Sample: in vitro
Concentration: 365 nM
Setting: natural RNA segment, single round, ends assumed
Relative to: no-protein control
Direction: higher = stronger binding
Endpoint: RBNS enrichment (R)
Constant ends, left off below: GGGAGUUCUACAGUCCGACGAUC … UGGAAUUCUCGGGUGCCAA
Construct (chain): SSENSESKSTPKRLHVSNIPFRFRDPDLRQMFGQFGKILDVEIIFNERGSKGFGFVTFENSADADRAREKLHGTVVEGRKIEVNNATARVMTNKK
Oligonucleotide = GUAUUGUGACCUUUUUUAAAAAAAAGGAACUGAGGUUCAGAAUGAUUAAGGGCCUGGCCCCCAGGGUUGUCCAGCUCCAUAAGGUGGAGCUGGGCAAGAUUUUGGGUUUG; result = 0.476
Oligonucleotide = CAUGCUUAAAAAGGAUGCCUCUUGUUUCUUGCUGCUGUAACUUACCAGAAAGUGUUAUAUAUUUAUUUCUGUCGGAACAGUGUUAUGCUACAAGACUUCAUAAUGGUUUU; result = 0.603
Oligonucleotide = CCGGCCUACCCACCCCACUCUACAGCCCCUCCAACCUCAAGGCACUUCGGGGACUCAGACGGGGGAGAUCCGGGCCAGUAGCUCCCAUGCCACCUGACUGACAGACGCCU; result = 0.593
Oligonucleotide = ACUGUCUGCUGCCGCCUGCCGGGGUGGCAGAGUGAGUUGUCUCAGGACCCCGUCACUGCGACGUUGACACUCCUCUCCCUUCCCUUCCUCCCCAACUCCCCAAACACUGU; result = 2.45
Oligonucleotide = AGUGAUUGUAGUUUCAUGUUAAUAUGUGGCAAAAUAUUUUUGUAAUUAUUUUCUAAUCCCUUUCUGAGUACUCUGGGGCCCUGCAUUUAUGAGGCACCUACCUUCAUUUU; result = 2.4
Oligonucleotide = AGUUUGAUUUGCCAGCAGUCAUACUGAGACUAGCUUGAUCCUACACCUGUUAGACAGUGGCAGAGAUAGGCCCAAGCUAAGUGGAGGCCAGGCCAGGCUGAGGGUGGGGC; result = 0.364
Oligonucleotide = CUCCUGGCCCCACCAGGGAUUUCCCCAUUUCUGUUUGCUGCCUGAAAGCAGGAUGAGGAAGGCCAAGGAGAGUCCUUGCACCCGUGAGCGUCAGGAUGAGGAAAUGACAG; result = 0.865
Oligonucleotide = AAAAGUGUGUCAGGGCAAGCAGACAACACAAUUUCCUAUCAGAAUAUGUCCCUCAACCCCCGAAACAAGGCUUCUCUCAGCCUCCCCACCAGUGAUGGAUAACAGCUCCU; result = 0.518
Oligonucleotide = AGCAGUCCGGGAGGCUGUGGAAAUGUUUAUUUAUAUUGUCCUUUUUUACCGAAGACAUGCAUACUCCAUCGAUGUUGUAUUCACAGUGGCUGAGGAAUUCUUGUACGCAG; result = 1.05
Oligonucleotide = CUCCUGGCCUCAGGAUCUCCCUGGGGCAGGAAGUGGGUGGACUUGGAGGAGGAACGGCAAGGGCCGGUCCCCACACUCUUGCUCCUCCUGGGCAUCUGGGGACAGGAACA; result = 0.237
Oligonucleotide = AGAAGACUCGUGUCUUGCUGUAGAAUCCAGUUUGGUUUCAGCAGCUUGACUUAAUGCACUUACAGGCUCAGGAAGGAAUUUGCUAUCACUGUUGUGGCUUUUGACUUGGG; result = 0.475
Oligonucleotide = CGUCCAAUGAUUUCAACCCUGCAGAGCACCCCGACAAUCCUGAGGCUGCAUCGGGAGCUAGAGCCAGCUAACAUUUCCUCUUUUCAAGACUGCCCUUGAUUUGCCCCUUG; result = 0.365

Study 2
Target: CCNE1, cyclin fold, Cln2 fusion (human)
Method: yeast growth competition, sequencing
Sample: yeast
Setting: strong parent motif
Relative to: not given
Direction: higher = stronger binding
Endpoint: normalised enrichment score
Parent: GMNC docking peptide (human); KNAKRNLSSEFAN
Change = L7A; result = 0.547
Change = N2E; result = 0.567
Change = K4M; result = 0.332
Change = A12G; result = 1.26
Change = F11T; result = 0.138
Change = A3P; result = -0.558
Change = A12W; result = 0.955
Change = S9Q; result = 1.34
Change = N6W; result = 0.0272
Change = S9A; result = 1.51
Change = S8M; result = 3.97
Change = N6A; result = 0.206
Change = R5A; result = 0.123
Change = S9T; result = 1.52
Change = E10P; result = 0.0142
Change = N2M; result = 0.809
Change = N2Y; result = 0.586
Change = S9Y; result = 2.14

Study 3
Target: ABI1, truncated, D143A, DHFR fusion (Arabidopsis thaliana)
Method: DHFR PCA, deep sequencing
Sample: yeast
Setting: methotrexate growth selection, single substitutions
With: (+)-ABA 0.11 µM
Relative to: wild-type fitted maximum
Direction: higher = stronger binding
Endpoint: relative binding score
Parent: PYL1, truncated, DHFR fusion (Arabidopsis thaliana); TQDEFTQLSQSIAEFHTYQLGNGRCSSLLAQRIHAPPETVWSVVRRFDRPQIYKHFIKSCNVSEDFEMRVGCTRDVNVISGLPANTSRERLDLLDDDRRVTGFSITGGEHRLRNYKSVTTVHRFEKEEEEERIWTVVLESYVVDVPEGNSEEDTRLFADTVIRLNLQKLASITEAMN; partner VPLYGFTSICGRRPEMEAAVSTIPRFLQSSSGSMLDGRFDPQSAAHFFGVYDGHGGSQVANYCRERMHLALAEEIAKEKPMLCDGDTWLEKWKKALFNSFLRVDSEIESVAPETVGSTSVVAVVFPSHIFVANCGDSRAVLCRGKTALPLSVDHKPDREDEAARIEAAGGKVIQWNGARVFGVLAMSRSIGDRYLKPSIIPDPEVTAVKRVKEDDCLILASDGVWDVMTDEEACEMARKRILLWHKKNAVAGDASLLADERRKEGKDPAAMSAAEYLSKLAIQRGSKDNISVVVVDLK
Change = M68N; result = 13.8%
Change = S63P; result = 45.3%
Change = P36F; result = -0.834%
Change = P83N; result = 11.5%
Change = D159G; result = -0.453%
Change = Q2W; result = 56.4%
Change = A84P; result = 27.3%
Change = Y53L; result = -0.405%
Change = T135G; result = -1.64%
Change = H55R; result = 39.7%
Change = P36S; result = 27.3%
Change = L20F; result = 15.2%
Change = S11K; result = 3.19%
Change = L91M; result = 4.52%
Change = L156D; result = 2.99%
Change = E139Y; result = 10.3%
Change = T120R; result = -3.43%
Change = T86E; result = -3.17%

Study 4
Target: RING finger protein unkempt homolog, zinc fingers 1-6, GST-SBP tag (UNK, Homo sapiens, UniProt Q9C0B0, residues 30-357)
Method: RNA Bind-n-Seq
Form: RNA
Sample: in vitro
Concentration: not given
Setting: RNA with constant flanks, human and mouse sites, ends assumed
Relative to: input RNA pool
Direction: higher = stronger binding
Endpoint: bound/input enrichment
Constant ends, left off below: GGGAGUUCUACAGUCCGACGAUC … CAACAGAGGAUUGAGCAUCA
Target sequence (chain): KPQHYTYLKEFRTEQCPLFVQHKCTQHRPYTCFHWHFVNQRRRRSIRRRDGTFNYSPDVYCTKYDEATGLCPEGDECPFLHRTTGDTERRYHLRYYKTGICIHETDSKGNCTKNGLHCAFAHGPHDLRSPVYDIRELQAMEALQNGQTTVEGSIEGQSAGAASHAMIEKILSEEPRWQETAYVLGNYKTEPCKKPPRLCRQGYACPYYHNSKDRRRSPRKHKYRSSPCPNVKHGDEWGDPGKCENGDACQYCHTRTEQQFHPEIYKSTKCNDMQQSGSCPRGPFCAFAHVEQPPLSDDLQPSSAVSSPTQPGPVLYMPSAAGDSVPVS
Oligonucleotide = CGCGUGCGUGCGUGUGUGUGCGCGCGCUAGUGUGUGGACAAGGAGGUGGGGGCAGCUGAGUUAGAGUCCCAACUCUUGGACUCCAUUUGCUAUUCUCUUCUUUCUCCCCCACACCUAUCU; result = 0.212 ratio
Oligonucleotide = UGUGGAAGCUCCCAUGACACGCUCCAGGAGCUCACAGCUCACAUGAUGGUCACUGGCCACUUUAUCAAGGUCACAAACUCGGCCAUGAAGAAGGGGAAGCCCAUCAUGGAGACACCGGUC; result = 0.0454 ratio
Oligonucleotide = UUCAUUCUGCUAUUCCAGAGACUUCAGAAUUCCAAAACAACCAAGUUUAUCAAGAGUUUUUUAGUCUUUAUUAAUUUGUAUUGCAUAAAAUAUGGGGCACUAGCACUACAAGAAAUAUUU; result = 7.02 ratio
Oligonucleotide = AGCAAGAAGAAUAACAUAUUCGCCCAGUUCCGGAAGAAUGACCGAGACAGACAGAAGCUGAUAGAGACAGUGGUGAGACAGCUCAGAGGCUUGGUGACUGGUAUGUCCCAGCACACGUAG; result = 0.248 ratio
Oligonucleotide = AACGUUGACGUGUUAUAGAUAAGCCUUGUCAUUCUGUAUCAAAAAUCUGUUGUCGUUUUCUAGUAACUUCAAAUUCCAUUACUCCAAAUGGCAUGGUUUUCCGGUUUGUAACCAUAACUA; result = 0.63 ratio
Oligonucleotide = UUCAGCCAAGCCAGACAGGAUGUCCUGAAGAGGAGCAUGUUGGGUUUUUUUGUUUGUUUGUUUGUUUUCCUAUCGCAGUGCAUUGUGGGUACUCCACACCCAAAGGGUCCUCUGGUGAAG; result = 0.235 ratio
Oligonucleotide = ACGGCCUCUGAGACCAUGGUGUGCCAAUCCUCUGCAGAGCAGUCACUCACCCGACAGGACAUCACCCAGCUGGAGGAGAGCAUUCGGGCAGAUACACCUUCUGGGGAUGAGCAGGAGCCC; result = 0.421 ratio
Oligonucleotide = GAUCACCAGGAGAUGAAUUUUGUAAGCAGCGCCUUCCUCAACUAAAUUCUAAGGAUAAUAAAUUUUUGACCUGUACAGAAGAAGAUGGGGUGCUGGUUUACCACCAUGCCCAGGAUGUCA; result = 0.247 ratio
Oligonucleotide = AUGAUUUAUGAGAUCAUUGAUAAUUCUCAAGGAUUUUAUGUAUGCCCAGUGGAGCGCCAGAAUAGAAGCAGGAUGAACAUCCCAUUUCGCAUUGGCAACGCCAAAGGAGACGAAGCUUUG; result = 0.261 ratio
Oligonucleotide = AAAGAAUACACUGAUGUGUACCCCGAAAUCAUUGAACGAGCAGGCUAUUCCUUGGAGAAGGUAUUUGGGAUUCAAUUGAAGGAAAUUGAUAAGAAUGACCACUUGUACAUUCUUCUCAGC; result = 0.117 ratio
Oligonucleotide = CCCUCAAGAUGGUCACUUUACACUGAAAGCUGAGCUCAGCAGGAGCACUGUGGGAAACAAAGCAUUGACUCUUGAGUACAGAGUUUAAAAUAGACUUUUCUUUUAGAACUAGAAUUAGAG; result = 19.5 ratio

Other studies, line by line
Molecule = PhoQ, residues 284 288 289 292 302 303 TSTLRA; target = PhoP, residues 12 14 15 18 19 LFHKL (Escherichia coli, UniProt P23836); test = Sort-seq, refers to: YFP reporter; system = E. coli; setting = PhoQ-PhoP variant library, with: 10 µM Mg2+; how to read = relative to: high Mg2+ state, higher = stronger signaling; endpoint = fold induction; result = 3.54
